# Assay results of several laboratories.
# Every numbered part comes from another study and shows a few of its results, in no order. Changes are numbered by the printed parent chain.

# Series 1 — method: RNA Bind-n-Seq; form: RNA; sample: in vitro; tested at: 1 µM; setting: whole 134-nt RNA, ends assumed; with: 150 mM KCl; reference: input library; direction: higher = stronger binding
# Target: Ras GTPase-activating protein-binding protein 1, RRM domain (G3BP1, Homo sapiens, UniProt Q13283)
# Chain of UniProt Q13283 (whole entry, looked up): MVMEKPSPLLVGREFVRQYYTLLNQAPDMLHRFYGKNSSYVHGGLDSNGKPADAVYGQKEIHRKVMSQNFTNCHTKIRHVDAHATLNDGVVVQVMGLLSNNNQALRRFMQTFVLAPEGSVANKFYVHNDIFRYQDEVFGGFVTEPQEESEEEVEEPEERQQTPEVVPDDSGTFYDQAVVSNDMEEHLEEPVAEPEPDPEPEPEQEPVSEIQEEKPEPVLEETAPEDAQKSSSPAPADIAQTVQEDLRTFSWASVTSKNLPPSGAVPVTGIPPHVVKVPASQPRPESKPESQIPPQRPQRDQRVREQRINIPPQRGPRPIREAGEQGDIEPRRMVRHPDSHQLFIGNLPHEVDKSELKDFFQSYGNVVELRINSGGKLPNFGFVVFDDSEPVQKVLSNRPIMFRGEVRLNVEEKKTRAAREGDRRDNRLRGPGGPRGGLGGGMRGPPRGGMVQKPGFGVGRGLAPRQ
# All sequences stand within: GGGAGUUCUACAGUCCGACGAUC … UGGAAUUCUCGGGUGUCAAGG
Strand,log2 enrichment
CUGUGCUACACAUCGUAUGUACCGAAUCGGGGAAAAAAGGGGAAAAAAGGGAAAAAAGGGGAAAGUAUUAUGUUACGCCGUUCGGAUCUG,-0.0975
CUCAAGUCCUGUGCUACACAUCGUAUGUACCGAAUCGGAGGUUUUUGGAAAGGAAAGUAUUAUGUUACGCCGUUCGGAUCUGCACUUCCA,-0.241
UCAAGUCCUGUGCUACACAUCGUAUGUACCGAAUCGGGGAAAGGAAAGGGAAAGGAAAGUAUUAUGUUACGCCGUUCGGAUCUGCACUUC,-0.317
UCCUGUGCUACACAUCGUAUGUACCGAAUCAAAGUGUGUGUGUGUGUGUGUGUGUGAAAAAAGUAUUAUGUUACGCCGUUCGGAUCUGCA,0.198
UGCUGUUCAGGUGGUGGAGAAGAAGAUGGAACCCCAGGCUGCCUGGCUACAGAGCCUGGAGGGAUGCAUGUGGACAGCCAAGAAGAAGCU,-0.404
UCAAGUCCUGUGCUACACAUCGUAUGUACCGAAUCGGGGCCGGGGCCGGCCGGGAAAGUAUUAUGUUACGCCGUUCGGAUCUGCACUUCC,-0.931
CAAGUCCUGUGCUACACAUCGUAUGUACCGAAUCGGUUUUUUUGGAGGUUUUUGGAAAGUAUUAUGUUACGCCGUUCGGAUCUGCACUUC,-0.285
UCAAGUCCUGUGCUACACAUCGUAUGUACCGAAUCGGCCCGGGGCCCGGCCCGGAAAGUAUUAUGUUACGCCGUUCGGAUCUGCACUUCC,-0.594
GUCAAGAAAGAUCUUAAGACUGGUCAUUCAAAGGGGUUUGGCUUUGUUCGUUUUACGGAAUAUGAAACACAAGUGAAAGUAAUGUCACAG,-0.0969
CUGUGCUACACAUCGUAUGUACCGAAUCGGUUUUUUUGGUUUUUUUGGGGUUUUUUUGGGGAAAGUAUUAUGUUACGCCGUUCGGAUCUG,-0.307
GUCCUGUGCUACACAUCGUAUGUACCGAAUCGGGCCCCCGGGCCCCCGGCCCCCGGGGAAAGUAUUAUGUUACGCCGUUCGGAUCUGCAC,-0.663
GCAGGAAGUAAAAACAAAUGGAAAUGCUUCGGAUAGUGGCAGGGGCGGGGGUUGCUAAGGAAAGGGUGGGAUGGGAGUGGGUAAAGAGUU,0.617
GUCCUGUGCUACACAUCGUAUGUACCGAAUCGGGGUGGGGUUUUUGGGGUUUUUGGGGAAAGUAUUAUGUUACGCCGUUCGGAUCUGCAC,0.716
CUCAAGUCCUGUGCUACACAUCGUAUGUACCGAAUCGGGAGGGAGGGAAAGGGAAAGUAUUAUGUUACGCCGUUCGGAUCUGCACUUCCA,0.8

# Series 2 — method: universal PBM; form: double-stranded DNA, one strand shown; sample: in vitro; tested at: 600 nM; direction: higher = stronger binding
# Target: Sal-like protein 4, full length isoform A (SALL4, Homo sapiens, UniProt Q9UJQ4, residues 1-1053)
# Chain of UniProt Q9UJQ4 (whole entry, looked up): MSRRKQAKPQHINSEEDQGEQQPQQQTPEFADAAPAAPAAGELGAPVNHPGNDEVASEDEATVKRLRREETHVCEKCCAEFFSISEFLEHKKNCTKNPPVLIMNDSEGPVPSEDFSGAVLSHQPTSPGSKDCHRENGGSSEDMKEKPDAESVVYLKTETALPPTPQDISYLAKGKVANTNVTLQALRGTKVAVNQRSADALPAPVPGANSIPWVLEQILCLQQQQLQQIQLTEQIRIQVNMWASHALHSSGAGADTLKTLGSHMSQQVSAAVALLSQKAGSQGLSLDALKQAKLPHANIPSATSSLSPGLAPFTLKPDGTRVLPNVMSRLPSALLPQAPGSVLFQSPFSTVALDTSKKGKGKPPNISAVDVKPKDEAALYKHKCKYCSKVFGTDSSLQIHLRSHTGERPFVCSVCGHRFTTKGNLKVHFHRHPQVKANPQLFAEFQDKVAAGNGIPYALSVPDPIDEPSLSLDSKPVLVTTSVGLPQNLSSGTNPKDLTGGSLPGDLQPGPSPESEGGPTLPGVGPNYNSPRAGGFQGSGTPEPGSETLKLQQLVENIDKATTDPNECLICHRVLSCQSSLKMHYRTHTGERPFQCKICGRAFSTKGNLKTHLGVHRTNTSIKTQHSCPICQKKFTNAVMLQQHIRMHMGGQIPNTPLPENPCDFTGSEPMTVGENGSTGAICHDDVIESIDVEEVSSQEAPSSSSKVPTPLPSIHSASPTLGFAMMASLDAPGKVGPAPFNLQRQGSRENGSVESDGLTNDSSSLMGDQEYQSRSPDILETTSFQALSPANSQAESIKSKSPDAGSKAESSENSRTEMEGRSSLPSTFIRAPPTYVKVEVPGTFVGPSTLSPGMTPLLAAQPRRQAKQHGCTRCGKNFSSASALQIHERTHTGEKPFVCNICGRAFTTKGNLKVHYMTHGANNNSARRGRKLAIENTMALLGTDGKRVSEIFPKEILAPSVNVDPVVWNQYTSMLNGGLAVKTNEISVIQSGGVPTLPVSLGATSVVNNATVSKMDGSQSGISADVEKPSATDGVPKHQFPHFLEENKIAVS
# Setting: 8-mer, flanks averaged, mean of replicates
Strand,E-score
ACGTCCAC,-0.124
CACCCACG,-0.359
AATTCACT,0.201
ACTAGGTA,0.0914
AGGTGATC,0.0193
AGACCGGG,-0.348
CTCAGAGC,-0.273
GAACCCTA,-0.0123
CATGCTCC,-0.218
AATGGTTC,0.0807
ATTAACAC,0.311
TGGCGCAA,0.0475
CCCCTGCA,-0.289
CAGAGCCG,-0.27
AGTGTGCC,-0.123
CTCCCCAA,-0.154
AGAGCTGC,-0.339
AGGGATCC,-0.376
CTACGGAG,-0.133
AAAGACTG,0.0421
ATCTATAA,0.401
CATACTAG,0.162

# Series 3 — target: CCND3, cyclin fold, Cln2 fusion (human); method: yeast growth competition, sequencing; sample: yeast; setting: weak parent motif; reference: not given; direction: higher = stronger binding
# Parent: CDC25A docking peptide (human); PPHRRRLLFACSP
Variant,normalised enrichment score
R5N,0.00832
P2G,0.162
R6H,0.101
R4G,0.167
H3L,0.175
S12N,0.197
P2E,0.157
R6L,0.121
S12E,0.155
P2C,0.221
F9K,0.156
A10N,0.131
R5K,0.385

# Series 4 — target: UBE2Q1 UBC core domain (UniProt Q7Z7E8); method: yeast two-hybrid; sample: yeast; setting: mostly zero background; reference: not given; direction: higher = stronger interaction
# B1: ANAPC11 RING domain (UniProt Q9NYG5); chain GICRMAFNGCCPDCKVPGDDCPLVWGQCSHCFHMHCILKWLHAQQVQQHCPMCRQEWKFKE
# B2: TRIM26 RING domain (UniProt Q12899); chain PLRSLEEEVTCSICLDYLRDPVTIDCGHVFCRSCTTDVRPISGSRPVCPLCKKPFKKENIRP
# B3: TRIM60 RING domain (UniProt Q495X7); chain ALVNLQEESSCPICLEYLKDPVTINCGHNFCRSCLSVSWKDLDDTFPCPVCRFCFPYKSFRR
# B4: RNF31 RING domain (UniProt Q96EP0); chain AFLRRLLAQECAVCGWALPHNRMQALTSCECTICPDCFRQHFTIALKEKHITDMVCPACGRPDLTDDTQLL
# B5: TRIM54 RING domain (UniProt Q9BYV2); chain SMDNLEKQLICPICLEMFSKPVVILPCQHNLCRKCANDVFQASNPLWQSRGSTTVSSGGRFRCPSCRHEVVLDRHGV
# B6: MYCBP2 RING domain (UniProt O75592); chain TSLKQDADDMCMICFTEALSAAPAIQLDCSHIFHLQCCRRVLENRWLGPRITFGFISCPICKNKINHIVLKD
# B7: RNF183 RING domain (UniProt Q96D59); chain EQQGRELEAECPVCWNPFNNTFHTPKMLDCCHSFCVECLAHLSLVTPARRRLLCPLCRQPTVLASGQP
# B8: RNF152 RING domain (UniProt Q8N8N0); chain ETLSQDSLLECQICFNYYSPRRRPKLLDCKHTCCSVCLQQMRTSQKDVRCPWCRGVTKLPPGFS
# B9: MEX3B RING domain (UniProt Q6ZN04); chain SGLRRKGSRDCSVCFESEVIAALVPCGHNLFCMECANRICEKSEPECPVCHTAVTQAIRIF
# Target sequence (chain): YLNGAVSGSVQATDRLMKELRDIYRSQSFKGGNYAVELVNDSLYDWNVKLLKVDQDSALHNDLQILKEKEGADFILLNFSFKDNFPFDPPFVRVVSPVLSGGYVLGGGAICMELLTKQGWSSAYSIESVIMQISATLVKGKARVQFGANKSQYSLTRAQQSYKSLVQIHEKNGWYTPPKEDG
Sequence,lacZ reporter activity
YPEEVDDDLICHICLQALLDPLDTPCGHTYCTLCLTNFLVEKDFCPMDRKPLVLQHCKK (LNX1 RING domain (UniProt Q8TBB1)),0
B1 (ANAPC11 RING domain),0
B2 (TRIM26 RING domain),0
QVQSRTKIEECVVCSDKKAAVLFQPCGHMCACENCANLMKKCVQCRAVVERRVPFI (MIB1 RING domain (UniProt Q86YT6)),0
B3 (TRIM60 RING domain),0
B4 (RNF31 RING domain),0
PEELAVNNDDCAICWDSMQAARKLPCGHLFHNSCLRSWLEQDTSCPTCRMSLNIADNNR (AMFR RING domain (UniProt Q9UKV5)),0
B5 (TRIM54 RING domain),0
B6 (MYCBP2 RING domain),0
B7 (RNF183 RING domain),0
MNDVLENELQCIICSEYFIEAVTLNCAHSFCSYCINEWMKRKIECPICRKDIKSKTYSL (RNF8 RING domain (UniProt O76064)),0
FVKTVEDKYKCEKCHLVLCSPKQTECGHRFCESCMAALLSSSSPKCTACQESIVKDKVF (TRAF3 RING domain (UniProt Q13114)),0
B8 (RNF152 RING domain),0
B9 (MEX3B RING domain),0

# Series 5 — method: DHFR PCA, deep sequencing; sample: yeast; with: (+)-ABA 0.39 µM; reference: wild-type fitted maximum; direction: higher = stronger binding
# Target: ABI1, truncated, D143A, DHFR fusion (Arabidopsis thaliana)
# Setting: methotrexate growth selection, single substitutions
# Parent: PYL1, truncated, DHFR fusion (Arabidopsis thaliana); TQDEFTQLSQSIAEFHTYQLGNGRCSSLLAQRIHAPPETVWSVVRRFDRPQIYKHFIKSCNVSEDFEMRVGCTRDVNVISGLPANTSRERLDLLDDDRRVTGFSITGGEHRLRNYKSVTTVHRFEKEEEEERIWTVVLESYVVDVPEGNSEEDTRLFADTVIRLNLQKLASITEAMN; partner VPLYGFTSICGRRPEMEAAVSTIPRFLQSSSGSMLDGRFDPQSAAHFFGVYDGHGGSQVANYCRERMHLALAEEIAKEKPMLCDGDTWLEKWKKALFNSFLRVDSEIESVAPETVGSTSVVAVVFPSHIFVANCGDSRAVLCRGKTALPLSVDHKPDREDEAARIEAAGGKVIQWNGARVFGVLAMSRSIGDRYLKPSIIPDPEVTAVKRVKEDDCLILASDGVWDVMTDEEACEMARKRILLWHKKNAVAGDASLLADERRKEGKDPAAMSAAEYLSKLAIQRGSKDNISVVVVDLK
Variant,relative binding score
L94K,-12.9%
Q167T,32.1%
G108M,-6.35%
E67P,11.6%
S104E,-15.1%
E139V,30.9%
P36W,-4.82%
T17I,-2.73%
Q10W,10.7%
I133S,57%
L8F,46.2%
K54T,-18%
E127S,49.4%
R24W,-5.24%

# A few entries again (series 3):
Variant,normalised enrichment score
S12E,0.155
R6L,0.121
S12N,0.197
R4G,0.167
R6H,0.101
P2C,0.221
F9K,0.156
A10N,0.131
P2G,0.162
H3L,0.175
R5N,0.00832
